Experimental data from different studies.
Protocols differ between the studies behind these lines. ± gives the spread as reported.
PI4KB: Phosphatidylinositol 4-kinase beta (PI4KB, Homo sapiens, UniProt Q9UBF8)

Clc1cc(Nc2ncnc3ccc(-c4cccc(N5CCOCC5)c4)cc23)ccc1OCc1ccccc1
EC50 (Leishmania major; intracellular amastigote growth, luciferase; RAW264.7 macrophages): 19000 nM

CC(C)C[C@H](NC(=O)N(CCCNC(=N)N)NC(=O)[C@H](Cc1ccc(O)cc1)NC(=O)CCCCCCC(=O)N[C@@H](Cc1ccc(O)cc1)C(=O)NN(CCCNC(=N)N)C(=O)N[C@@H](CC(C)C)C(=O)N[C@@H](CCCNC(=N)N)C(=O)N[C@@H](Cc1ccc(O)cc1)C(N)=O)C(=O)N[C@@H](CCCNC(=N)N)C(=O)N[C@@H](Cc1ccc(O)cc1)C(N)=O
Kb (NPY4R (Homo sapiens, UniProt P50391); calcium signal, antagonist): 118 nM

CN(CCOCCOCCOCCOCCOCCOCCNc1cccc2c1C(=O)N(C1CCC(=O)NC1=O)C2=O)Cc1ccc(-c2[nH]c3cc(F)cc4c3c2CCNC4=O)cc1 (stereo not drawn)
DC50 (Parp1 (Rattus norvegicus, UniProt P27008); degrader): 81.8 ± 17.2 nM

Cc1cccc2c1N(C(=O)n1ccnn1)CC2
Kd (KAI2 (Arabidopsis thaliana, UniProt Q9SZU7, F194A); ITC; F194A mutant, mean): 442000 nM

NC(=O)C[C@@H]1NC(=O)[C@H](Cc2ccc(O)cc2)NC(=O)CNC(=O)CNC(=O)[C@H](CCC(=O)O)NC(=O)[C@H](CCC(=O)O)NC(=O)[C@H](Cc2ccccc2)NC(=O)[C@@H]2CCCN2C1=O
Kd (EH domain-containing protein 1 (Homo sapiens, UniProt Q9H4M9); binding, ITC): 2500 nM

CC1NCC(c2ccccc2Cl)c2c1[nH]c1ccccc21 (stereo not drawn)
Ki (Slc6a4 (Rattus norvegicus, UniProt P31652); ligand displacement, radioligand): 322 nM

CCN(CC)CC(=O)Nc1cccc(-n2cc(-c3ccc4ccc(-c5cn(-c6cccc(NC(=O)CN(CC)CC)c6)nn5)cc4c3)nn2)c1
IC50 (PI4KB; enzyme activity, inhibitor): > 10000 nM

Cn1ccc2c(N3CCN(CCCCOc4ccc5c(c4)NC(=O)CC5)CC3)cccc21
Ki (CHRM1 (Homo sapiens, UniProt P11229); ligand displacement, radioligand): 940 nM

Cc1nn(-c2cccc(N)c2)c(=O)c2cnc(Nc3ccc(N4CCNCC4)cc3)nc12
IC50 (PI4KB; enzyme activity, inhibitor): > 10000 nM

CCOC(=O)N1CCN(C(c2cccs2)c2c(CC)[nH]c3ccccc23)CC1 (stereo not drawn)
Kd (Acyl-coenzyme A thioesterase 11 (ACOT11, Homo sapiens, UniProt Q8WXI4); binding, microscale thermophoresis): 3390 nM

CCCCCOc1ccc(-c2ccc3ncnc(Nc4ccc(OCc5cccc(F)c5)c(Cl)c4)c3c2)c(F)c1F
EC50 (Leishmania major; intracellular amastigote growth, luciferase; RAW264.7 macrophages): > 15000 nM

NCCC(=O)O
Kd (SLC6A6 (Homo sapiens, UniProt P31641, F300A)): no binding
